# Published values collected from several papers.
# Several values in a cell are separate wells, animals, samples, runs or records. Numbers after ± are the reported error.
# folP: Dihydropteroate synthase (folP, Bacteria, UniProt P0AC13)
# UniProt P0AC13, sequence (whole entry, looked up): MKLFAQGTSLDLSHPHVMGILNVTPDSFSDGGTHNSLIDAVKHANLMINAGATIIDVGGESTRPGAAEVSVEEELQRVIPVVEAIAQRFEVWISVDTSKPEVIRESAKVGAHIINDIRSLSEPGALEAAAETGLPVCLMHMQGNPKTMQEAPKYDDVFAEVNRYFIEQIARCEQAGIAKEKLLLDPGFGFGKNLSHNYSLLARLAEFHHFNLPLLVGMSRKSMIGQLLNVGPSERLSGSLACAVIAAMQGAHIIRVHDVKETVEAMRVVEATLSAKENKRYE
# T1: RNA aptamer; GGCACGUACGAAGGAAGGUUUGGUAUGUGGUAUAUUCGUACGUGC
# UniProt P04792, sequence (whole entry, looked up): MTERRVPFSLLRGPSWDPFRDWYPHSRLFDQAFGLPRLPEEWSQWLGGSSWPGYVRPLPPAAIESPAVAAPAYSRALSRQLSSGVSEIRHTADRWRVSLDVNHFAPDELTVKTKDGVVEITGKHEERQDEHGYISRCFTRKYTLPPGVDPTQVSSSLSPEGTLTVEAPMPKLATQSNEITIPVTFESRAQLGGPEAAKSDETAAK
# UniProt P45983, sequence (whole entry, looked up): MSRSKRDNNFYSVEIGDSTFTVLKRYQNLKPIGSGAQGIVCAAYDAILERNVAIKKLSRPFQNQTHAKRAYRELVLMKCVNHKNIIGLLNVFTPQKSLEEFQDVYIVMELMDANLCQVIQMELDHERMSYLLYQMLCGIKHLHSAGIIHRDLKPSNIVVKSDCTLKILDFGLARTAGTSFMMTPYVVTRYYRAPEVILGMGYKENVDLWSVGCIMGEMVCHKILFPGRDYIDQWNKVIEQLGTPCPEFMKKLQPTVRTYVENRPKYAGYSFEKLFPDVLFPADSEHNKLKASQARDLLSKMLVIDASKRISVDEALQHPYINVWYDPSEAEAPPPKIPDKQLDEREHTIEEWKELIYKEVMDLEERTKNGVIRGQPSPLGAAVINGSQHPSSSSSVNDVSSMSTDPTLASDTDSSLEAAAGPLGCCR
# UniProt P18031, sequence (whole entry, looked up): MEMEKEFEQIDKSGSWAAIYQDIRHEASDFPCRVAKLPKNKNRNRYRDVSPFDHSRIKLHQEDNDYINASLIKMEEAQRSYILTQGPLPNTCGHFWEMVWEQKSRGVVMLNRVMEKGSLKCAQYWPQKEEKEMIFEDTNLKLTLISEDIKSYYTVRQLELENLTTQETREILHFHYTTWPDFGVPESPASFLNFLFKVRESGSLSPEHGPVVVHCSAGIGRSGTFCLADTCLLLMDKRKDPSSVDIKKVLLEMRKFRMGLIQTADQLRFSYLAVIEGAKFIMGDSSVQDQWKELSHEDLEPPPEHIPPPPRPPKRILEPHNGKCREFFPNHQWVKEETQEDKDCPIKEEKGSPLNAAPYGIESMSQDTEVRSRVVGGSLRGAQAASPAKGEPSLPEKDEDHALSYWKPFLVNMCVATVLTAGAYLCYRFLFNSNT
# UniProt Q9NSD7, sequence (whole entry, unmodified, looked up): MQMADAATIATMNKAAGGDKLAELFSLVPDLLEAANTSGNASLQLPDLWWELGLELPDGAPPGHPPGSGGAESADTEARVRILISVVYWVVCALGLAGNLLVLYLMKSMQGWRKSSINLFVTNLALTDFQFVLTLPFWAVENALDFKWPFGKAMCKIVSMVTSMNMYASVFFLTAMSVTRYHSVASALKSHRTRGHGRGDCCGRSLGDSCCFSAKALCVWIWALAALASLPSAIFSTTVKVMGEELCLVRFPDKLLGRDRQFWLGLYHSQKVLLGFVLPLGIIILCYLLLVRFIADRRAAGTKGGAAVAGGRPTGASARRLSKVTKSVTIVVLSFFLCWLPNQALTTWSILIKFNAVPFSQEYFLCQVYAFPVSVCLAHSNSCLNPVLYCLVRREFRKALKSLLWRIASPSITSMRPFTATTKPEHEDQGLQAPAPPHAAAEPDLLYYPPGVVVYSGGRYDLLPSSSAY
# UniProt P97287, sequence (152-308, looked up): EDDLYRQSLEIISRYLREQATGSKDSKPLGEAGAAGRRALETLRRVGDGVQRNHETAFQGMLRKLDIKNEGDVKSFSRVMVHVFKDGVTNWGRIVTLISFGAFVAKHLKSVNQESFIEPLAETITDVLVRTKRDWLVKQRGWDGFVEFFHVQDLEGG
# UniProt P38606, sequence (whole entry, looked up): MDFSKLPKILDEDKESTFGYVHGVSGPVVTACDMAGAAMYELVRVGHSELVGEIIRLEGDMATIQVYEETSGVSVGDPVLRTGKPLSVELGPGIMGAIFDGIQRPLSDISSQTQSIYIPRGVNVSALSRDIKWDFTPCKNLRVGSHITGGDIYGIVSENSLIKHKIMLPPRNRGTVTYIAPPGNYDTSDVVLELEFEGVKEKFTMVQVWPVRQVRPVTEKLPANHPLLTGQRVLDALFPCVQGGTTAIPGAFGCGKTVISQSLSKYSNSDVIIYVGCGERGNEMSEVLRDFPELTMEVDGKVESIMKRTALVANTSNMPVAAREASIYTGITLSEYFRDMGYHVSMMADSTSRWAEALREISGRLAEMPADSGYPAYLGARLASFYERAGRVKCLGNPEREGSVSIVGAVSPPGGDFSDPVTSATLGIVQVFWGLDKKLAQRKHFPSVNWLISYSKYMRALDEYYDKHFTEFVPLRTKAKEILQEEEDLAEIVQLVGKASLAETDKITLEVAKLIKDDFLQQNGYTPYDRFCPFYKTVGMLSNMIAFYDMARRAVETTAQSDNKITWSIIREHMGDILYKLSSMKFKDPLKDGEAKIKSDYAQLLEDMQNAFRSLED
# UniProt P13500, sequence (whole entry, looked up): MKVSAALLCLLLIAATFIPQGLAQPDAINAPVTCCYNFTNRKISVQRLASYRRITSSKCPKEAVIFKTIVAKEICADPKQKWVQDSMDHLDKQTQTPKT
# UniProt Q96SW2, sequence (whole entry, looked up): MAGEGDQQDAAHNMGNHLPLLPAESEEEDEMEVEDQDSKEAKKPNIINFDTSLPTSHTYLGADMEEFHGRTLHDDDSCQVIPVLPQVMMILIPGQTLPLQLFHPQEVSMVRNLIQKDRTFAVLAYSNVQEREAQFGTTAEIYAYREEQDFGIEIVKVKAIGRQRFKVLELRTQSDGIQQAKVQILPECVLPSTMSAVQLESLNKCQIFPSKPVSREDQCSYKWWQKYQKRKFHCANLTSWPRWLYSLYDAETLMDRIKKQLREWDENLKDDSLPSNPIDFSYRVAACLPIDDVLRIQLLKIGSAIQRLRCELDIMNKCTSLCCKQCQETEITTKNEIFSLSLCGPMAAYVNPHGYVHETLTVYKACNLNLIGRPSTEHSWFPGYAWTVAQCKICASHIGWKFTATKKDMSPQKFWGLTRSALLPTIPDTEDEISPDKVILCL
# UniProt Q9EP89, sequence (whole entry, looked up): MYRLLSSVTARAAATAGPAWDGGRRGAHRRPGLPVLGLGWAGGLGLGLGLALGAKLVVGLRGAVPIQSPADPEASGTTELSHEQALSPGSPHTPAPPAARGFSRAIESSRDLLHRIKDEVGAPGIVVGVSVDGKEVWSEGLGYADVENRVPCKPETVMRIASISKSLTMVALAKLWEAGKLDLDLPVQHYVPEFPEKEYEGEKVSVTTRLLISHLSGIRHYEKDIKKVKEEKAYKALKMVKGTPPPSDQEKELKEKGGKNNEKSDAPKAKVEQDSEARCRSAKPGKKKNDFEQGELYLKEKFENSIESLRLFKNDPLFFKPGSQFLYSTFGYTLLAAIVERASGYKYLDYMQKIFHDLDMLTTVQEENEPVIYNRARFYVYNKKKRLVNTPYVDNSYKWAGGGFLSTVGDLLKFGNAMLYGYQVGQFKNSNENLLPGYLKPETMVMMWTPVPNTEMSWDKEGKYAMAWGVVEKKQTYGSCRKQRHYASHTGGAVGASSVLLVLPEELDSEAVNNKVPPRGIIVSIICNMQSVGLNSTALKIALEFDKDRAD
# UniProt P48735, sequence (whole entry, unmodified, looked up): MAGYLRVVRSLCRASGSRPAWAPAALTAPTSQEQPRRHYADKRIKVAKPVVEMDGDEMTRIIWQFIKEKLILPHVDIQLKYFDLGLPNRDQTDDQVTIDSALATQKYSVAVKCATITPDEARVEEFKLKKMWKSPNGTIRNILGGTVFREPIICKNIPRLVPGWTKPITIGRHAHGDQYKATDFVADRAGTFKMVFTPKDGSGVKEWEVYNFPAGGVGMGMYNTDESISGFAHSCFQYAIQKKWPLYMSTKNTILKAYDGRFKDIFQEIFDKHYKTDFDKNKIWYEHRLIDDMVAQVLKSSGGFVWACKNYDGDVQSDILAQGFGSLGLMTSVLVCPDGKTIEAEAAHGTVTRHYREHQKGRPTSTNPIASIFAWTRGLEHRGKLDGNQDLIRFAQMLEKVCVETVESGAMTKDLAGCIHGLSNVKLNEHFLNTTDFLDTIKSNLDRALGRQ
# UniProt Q92847, sequence (whole entry, unmodified, looked up): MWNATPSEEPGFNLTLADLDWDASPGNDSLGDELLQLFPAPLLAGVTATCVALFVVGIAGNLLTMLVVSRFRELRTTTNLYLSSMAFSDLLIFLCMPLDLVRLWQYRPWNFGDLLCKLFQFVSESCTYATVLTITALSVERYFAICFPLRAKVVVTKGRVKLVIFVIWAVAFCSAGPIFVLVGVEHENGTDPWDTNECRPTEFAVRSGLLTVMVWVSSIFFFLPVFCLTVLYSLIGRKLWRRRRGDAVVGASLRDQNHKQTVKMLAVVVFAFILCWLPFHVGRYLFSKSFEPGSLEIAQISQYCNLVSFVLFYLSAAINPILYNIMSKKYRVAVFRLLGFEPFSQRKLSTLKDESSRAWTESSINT
# UniProt Q8TDS7, sequence (whole entry, looked up): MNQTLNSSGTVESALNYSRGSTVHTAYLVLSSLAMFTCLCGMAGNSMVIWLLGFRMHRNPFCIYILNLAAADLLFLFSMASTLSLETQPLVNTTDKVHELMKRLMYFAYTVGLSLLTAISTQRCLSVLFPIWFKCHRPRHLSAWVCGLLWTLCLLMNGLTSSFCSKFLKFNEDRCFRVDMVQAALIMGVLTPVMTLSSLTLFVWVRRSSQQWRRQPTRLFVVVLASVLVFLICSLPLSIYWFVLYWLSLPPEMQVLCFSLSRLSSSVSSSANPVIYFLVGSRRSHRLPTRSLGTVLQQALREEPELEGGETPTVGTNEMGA
Structure (SMILES),target,assay,system,setting,scale,measurement,value
CNC(=O)C1CCN(c2cc(C)c(F)cc2NC(=O)c2ccc(-c3cc(O)ccc3C)c(C)c2)CC1,"Tyrosine-protein kinase ABL1, phosphorylated (ABL1, Homo sapiens, UniProt P00519, H396P)","binding, competition with immobilised ligand",,1 µM,,remaining binding,22%
CC(C)[C@@H]1NC(=O)[C@@H]2CCCN2C(=O)[C@H](CCCCN)NC(=O)[C@H](Cc2ccccc2)NC(=O)[C@H](Cc2ccccc2)NC(=O)[C@H](CC(=O)O)NC(=O)[C@H](CCC(=O)O)NC(=O)[C@H](Cc2ccc(O)cc2)NC(=O)[C@H](CC(=O)O)NC(=O)[C@H](CCC(=O)O)NC(=O)[C@H](CC(=O)O)NC(=O)[C@H](CCC(=O)O)NC(=O)[C@H](Cc2ccc(O)cc2)NC(=O)CSC[C@@H](C(=O)N[C@@H](Cc2ccc(O)cc2)C(=O)N[C@@H](Cc2ccccc2)C(N)=O)NC(=O)[C@H]([C@@H](C)O)NC1=O,"C-C motif chemokine 2 (CCL2, Homo sapiens, UniProt P13500)","chemokine binding, flow cytometry",THP-1,added: fluorescent CCL2 1.2 nM,,Hill slope,-0.823
C#CCOC(=O)[C@@]1(C)C=C(C(=O)OC(C)(C)C)C(=O)CC1,"Mitogen-activated protein kinase 8 (MAPK8, Homo sapiens, UniProt P45983)","enzyme activity, D-SENSOR",,"14.81 µM, single replicate",,normalized kinase activity,0.763 and 0.946 and 0.827
CC(C(=O)O)c1nn(C)c2nc(N)[nH]c(=O)c2c1=O (stereo not shown),folP,CETSA HiBiT,"Escherichia coli, cell lysate",concentration not given,relative to: DMSO,melting temperature shift,24.6 °C
O=C(CCl)N[C@@H](Cc1ccccc1)C(=O)N1CCCC[C@H]1C(=O)NCCc1c[nH]c2cc(Cl)cc(Cl)c12,"Peptidyl-prolyl cis-trans isomerase NIMA-interacting 1 (PIN1, Homo sapiens, UniProt Q13526)","protein denaturation, thermal shift",,,,first transition share,70%
COC(=O)[C@@]1(C)C=C(C(=O)Nc2cccc(C(=O)Nc3ccc(Nc4nccc(-c5cccnc5)n4)c(C)c3)c2)C(=O)CC1,"Mitogen-activated protein kinase 14 (MAPK14, Homo sapiens, UniProt Q16539)","kinase activity, inhibitor",,"133.3 µM, unit not given",relative to: no inhibitor,remaining activity,0.218
C[C@@H](Nc1nc(N[C@H](C)C(F)(F)F)nc(-c2cccc(Cl)n2)n1)C(F)(F)F,"Isocitrate dehydrogenase [NADP], mitochondrial, heterodimer with wild-type (IDH2, Homo sapiens, UniProt P48735, R140Q)",forward reaction,,"1 h preincubation, wild type",,maximum inhibition,57.8 ± 1.5%
N[C@H]1CC[C@H](Nc2nccc(-c3cccnc3Oc3ccc(NC(=O)NC4CC4)c4ccccc34)n2)CC1,"Heat shock protein beta-1 (HSPB1, Homo sapiens, UniProt P04792)",kinobead competition pulldown,HEK293/HCT116 lysate mixture,"10 µM, 1 h, 4 °C",lower = stronger competition,log2 LFQ intensity,23.5 and 23.2 and 23.7
Cn1nc(CC(=O)O)c(=O)c2c(=O)[nH]c(N)nc21,folP,CETSA HiBiT,"Escherichia coli, whole cells",,,melting temperature,64 °C
Cc1cnc2nc1Nc1cccc(c1)COC/C=C/COCc1cc(ccc1OCCN1CCOCC1)N2,"Epidermal growth factor receptor (EGFR, Homo sapiens, UniProt P00533, L861Q)",binding,,0.1 µM,,remaining binding,93%
CC(C(=O)O)c1n[nH]c2nc(N)[nH]c(=O)c2c1=O (stereo not shown),folP,CETSA HiBiT,"Escherichia coli, cell lysate",concentration not given,relative to: DMSO,melting temperature shift,20.9 °C
CCCCCCCCCCOc1c(O)cc(C(=O)OC2Cc3c(O)cc(O)cc3OC2c2cc(O)c(O)c(O)c2)cc1O (stereo not shown),"Albumin (ALB, Homo sapiens, UniProt P02768)",Scatchard plot,,"concentration not given, added: 10 µM HSA",,number of binding sites,1.27
COc1ccccc1-c1ccncc1C(=O)Nc1nnc(OCc2ccc(Cl)cc2)s1,"RECQL5 (Homo sapiens, UniProt O94762)","ATPase activity, ADP-Glo",,"0.48 µM, 1 h",,remaining activity,109%
CCCCCC(O)/C=C/C=O (stereo not shown),"Alpha-adducin (ADD1, Homo sapiens, UniProt P35611)","competitive isoTOP-ABPP, measured: ADD1 cysteine peptide","proteome, soluble, MDA-MB-231","100 µM, added: iodoacetamide probe","relative to: DMSO over compound-treated, higher = stronger cysteine blockade",isoTOP-ABPP competition ratio,1.7
CCC1(CC)C(=O)N(c2cc(O)cc(C(=O)N3CCN(Cc4ccc(Br)cc4)CC3)c2)C1=O,"Dipeptidyl peptidase 9 (DPP9, Homo sapiens, UniProt Q86TI2)","enzyme activity, inhibitor",,5 µM,,activity vs control,6.8%
CCOC(=O)Cc1n[nH]c2nc(N)[nH]c(=O)c2c1=O,folP,CETSA HiBiT,"Escherichia coli, cell lysate",concentration not given,relative to: DMSO,melting temperature shift,13.7 °C
Fc1ccc(Nc2nc(NC3CCCCC3)c3cc(Br)ccc3n2)cc1F,"Beta-2 adrenergic receptor (ADRB2, Homo sapiens, UniProt P07550, I159A)","β-arrestin2 recruitment, antagonist, BRET",,mutant I159A,relative to: isoprenaline maximal response,maximal inhibition,0.8%
Cc1ccc2c(c1)C(=Cc1sc3ccccc3[n+]1C)C=CN2C,"T1, RNA aptamer",fluorescence titration,,,,Kd,2 nM
CC1(C)CC[C@@]2(CO)C(=C3C=C[C@@H]4[C@@]5(C)CC[C@H](O)[C@@](C)(CO)[C@@H]5CC[C@@]4(C)[C@]3(C)C[C@@H]2O)C1,"NAD-dependent protein deacetylase sirtuin-1 (SIRT1, Homo sapiens, UniProt Q96EB6)","binding, microscale thermophoresis",,43.2 nM,,MST normalised fluorescence,910 a.u.
O=C(N1CCCC1)n1cc(-c2ccc(-c3ccccc3)cc2)nn1,"Serine beta-lactamase-like protein LACTB, mitochondrial (Lactb, Mus musculus, UniProt Q9EP89)","enzyme activity, inhibitor, competitive ABPP-SILAC, measured: Lactb",mouse T-cells,"concentration not given, 4 h, treated in situ",relative to: DMSO,activity ratio,1.2
Cn1c(=O)n(C2CCC(=O)NC2=O)c2ccc(C3CCN(CC(=O)Nc4cccc(CS(=O)(=O)N5CC[C@H](Nc6cccc(-c7sc(C(=O)O)c(OCC(=O)O)c7Cl)c6)CC5(C)C)c4)CC3)cc21 (stereo partly shown),"Tyrosine-protein phosphatase non-receptor type 1 (PTPN1, Homo sapiens, UniProt P18031)","degrader, bio-layer interferometry",,"500 nM, biotinylated protein immobilised",higher = more binding,BLI binding response,0.25 a.u.
CCCCCCCCCCCCC/C=C/C=O,"V-type proton ATPase catalytic subunit A (ATP6V1A, Homo sapiens, UniProt P38606)",competitive isoTOP-ABPP,"proteome, soluble, MDA-MB-231","100 µM, added: iodoacetamide probe","relative to: DMSO over compound-treated, higher = stronger cysteine blockade",isoTOP-ABPP competition ratio,1.2
CC(C)(C(=O)N1CCC(Nc2nc3c(c(=O)[nH]2)CCCC3)CC1)c1ccc(Cl)cc1,"MRGPRD (Homo sapiens, UniProt Q8TDS7)","miniGq recruitment, agonist, BRET1",HEK293T,,relative to: wild type,Emax,85.3 ± 2.88%
CC[C@H](C)[C@H](NC(=O)[C@H](CCC(=O)O)NC(=O)[C@H](CCCNC(=N)N)NC(=O)[C@H](C)NC(=O)[C@H](Cc1c[nH]c2ccccc12)NC(=O)[C@H](CCC(=O)O)NC(=O)[C@H](CCC(=O)O)NC(=O)[C@H](CCC(=O)O)NC(C)=O)C(=O)NCC(=O)N[C@@H](C)C(=O)N[C@@H](Cc1ccc(O)cc1)C(=O)N[C@@H](CC(C)C)C(=O)N[C@@H](CCCNC(=N)N)C(=O)N[C@@H](CCCNC(=N)N)C(=O)N[C@@H](C)C(=O)N[C@@H](C)C(=O)N[C@@H](CC(=O)O)C(=O)N[C@@H](CC(=O)O)C(=O)N[C@@H](CC(C)C)C(=O)N[C@@H](CC(N)=O)C(=O)N[C@@H](C)C(=O)N[C@@H](CCC(N)=O)C(=O)N[C@@H](Cc1ccc(O)cc1)C(=O)N[C@@H](CCC(=O)O)C(=O)N[C@@H](CCCNC(=N)N)C(=O)N[C@@H](CCCNC(=N)N)C(=O)N[C@@H](CCCNC(=N)N)C(N)=O,"Induced myeloid leukemia cell differentiation protein Mcl-1 homolog, residues 152-308 (Mus musculus, UniProt P97287)","binding, SPR",,0.2% DMSO,,koff,0.0003 s⁻¹
NCc1cc2c(cc1F)C(=O)N(C1CCC(=O)NC1=O)C2 (stereo not shown),"CRBN/SALL4 (Homo sapiens, UniProt Q96SW2+Q9UJQ4)","protein degradation, degrader",Kelly,,,Dmax,81%
COc1ccc(C(=O)c2c(C(=O)NCCCN(C)C)oc3ccc(Cl)cc3c2=O)cc1OC,"Growth hormone secretagogue receptor type 1 (GHSR, Homo sapiens, UniProt Q92847, E197A)","intracellular Ca2+, agonist",HEK293T transiently transfected,,,Emax,81 ± 3.8%
CC(C)C[C@@H]1NC(=O)[C@@H]2CSSC[C@@H](C(=O)NCC(=O)O)NC(=O)[C@H](Cc3ccccc3)NC(=O)CNC(=O)[C@H](CC(N)=O)NC(=O)[C@@H]3CCCN3C(=O)CNC(=O)[C@@H]3CSSC[C@H](NC(=O)[C@H](CCCNC(=N)N)NC(=O)[C@@H]4CCCN4C(=O)[C@H](Cc4c[nH]cn4)NC(=O)[C@H](CCCCN)NC(=O)[C@H](C(C)C)NC(=O)[C@H](CCCNC(=N)N)NC(=O)[C@H](CC(N)=O)NC(=O)[C@@H]4CCCN4C(=O)[C@H](CO)NC(=O)[C@H](CCC(N)=O)NC(=O)[C@@H](NC(=O)CN)CSSC[C@H](NC(=O)CNC(=O)[C@H](C)NC1=O)C(=O)N[C@@H](C(C)C)C(=O)N3)C(=O)N[C@@H](CCCCN)C(=O)N[C@@H](CCC(N)=O)C(=O)N[C@@H](CC(=O)O)C(=O)N[C@@H](CO)C(=O)N[C@@H](CC(=O)O)C(=O)N2,"Low-density lipoprotein receptor-related protein 6, E1 domain (LRP6, Homo sapiens, UniProt O75581)","binding, SPR",,pH 7.5,,kon,1.01e+06 ± 150000 M⁻¹ s⁻¹
CC[C@H](C)[C@@H]1NC(=O)[C@H](Cc2ccccc2)NC(=O)[C@H](CCC(=O)O)NC(=O)[C@H](CCCNC(=N)N)NC(=O)CNC(=O)[C@@H](NC(=O)[C@H](CC(C)C)NC(=O)[C@H](CCCNC(=N)N)NC(=O)[C@@H](NC(=O)CNC(=O)[C@H](Cc2ccc(O)cc2)NC(=O)[C@@H]2CCCN2C(=O)[C@H](C)NC(=O)[C@H](C)NC(=O)[C@@H](N)CCCNC(=N)N)C(C)C)CSSC[C@@H]2NC(=O)[C@@H](NC(=O)[C@H](CO)NC(=O)[C@H](CO)NC(=O)[C@H](CO)NC(=O)[C@H](CC(C)C)NC(=O)CNC(=O)[C@H](C)NC(=O)[C@H](CC(C)C)NC(=O)[C@@H](NC(=O)[C@@H](N)CC(=O)O)C(C)C)CSSC[C@H](NC(=O)CNC(=O)[C@H](Cc3c[nH]c4ccccc34)NC(=O)[C@H](CCCCN)NC2=O)C(=O)N[C@@H](CO)C(=O)N[C@@H](CCCCN)C(=O)N[C@@H](CO)C(=O)N[C@@H](CCC(=O)O)C(=O)N[C@@H]([C@@H](C)CC)C(=O)N[C@@H](CO)C(=O)N[C@@H](CO)C(=O)N[C@@H](CC(C)C)C(=O)N[C@H](C(=O)O)CSSC[C@@H](C(=O)NCC(=O)NCC(=O)N[C@@H](CO)C(=O)N[C@@H](CCCNC(=N)N)C(=O)N[C@@H](Cc2c[nH]c3ccccc23)C(=O)O)NC(=O)[C@H]([C@@H](C)O)NC(=O)[C@H](Cc2ccccc2)NC(=O)[C@H]([C@@H](C)CC)NC(=O)[C@H](C(C)C)NC(=O)[C@H](C)NC(=O)[C@H](CCCNC(=N)N)NC1=O,"Relaxin-3 receptor 1 (RXFP3, Homo sapiens, UniProt Q9NSD7, S159A/S163A)",,HEK-293T,,relative to: wild type,Emax,73.9 ± 7.73%

# For quick reference, copied from above:
Structure (SMILES),target,assay,system,setting,scale,measurement,value
CC(C)[C@@H]1NC(=O)[C@@H]2CCCN2C(=O)[C@H](CCCCN)NC(=O)[C@H](Cc2ccccc2)NC(=O)[C@H](Cc2ccccc2)NC(=O)[C@H](CC(=O)O)NC(=O)[C@H](CCC(=O)O)NC(=O)[C@H](Cc2ccc(O)cc2)NC(=O)[C@H](CC(=O)O)NC(=O)[C@H](CCC(=O)O)NC(=O)[C@H](CC(=O)O)NC(=O)[C@H](CCC(=O)O)NC(=O)[C@H](Cc2ccc(O)cc2)NC(=O)CSC[C@@H](C(=O)N[C@@H](Cc2ccc(O)cc2)C(=O)N[C@@H](Cc2ccccc2)C(N)=O)NC(=O)[C@H]([C@@H](C)O)NC1=O,"C-C motif chemokine 2 (CCL2, Homo sapiens, UniProt P13500)","chemokine binding, flow cytometry",THP-1,added: fluorescent CCL2 1.2 nM,,Hill slope,-0.823
CC[C@H](C)[C@H](NC(=O)[C@H](CCC(=O)O)NC(=O)[C@H](CCCNC(=N)N)NC(=O)[C@H](C)NC(=O)[C@H](Cc1c[nH]c2ccccc12)NC(=O)[C@H](CCC(=O)O)NC(=O)[C@H](CCC(=O)O)NC(=O)[C@H](CCC(=O)O)NC(C)=O)C(=O)NCC(=O)N[C@@H](C)C(=O)N[C@@H](Cc1ccc(O)cc1)C(=O)N[C@@H](CC(C)C)C(=O)N[C@@H](CCCNC(=N)N)C(=O)N[C@@H](CCCNC(=N)N)C(=O)N[C@@H](C)C(=O)N[C@@H](C)C(=O)N[C@@H](CC(=O)O)C(=O)N[C@@H](CC(=O)O)C(=O)N[C@@H](CC(C)C)C(=O)N[C@@H](CC(N)=O)C(=O)N[C@@H](C)C(=O)N[C@@H](CCC(N)=O)C(=O)N[C@@H](Cc1ccc(O)cc1)C(=O)N[C@@H](CCC(=O)O)C(=O)N[C@@H](CCCNC(=N)N)C(=O)N[C@@H](CCCNC(=N)N)C(=O)N[C@@H](CCCNC(=N)N)C(N)=O,"Induced myeloid leukemia cell differentiation protein Mcl-1 homolog, residues 152-308 (Mus musculus, UniProt P97287)","binding, SPR",,0.2% DMSO,,koff,0.0003 s⁻¹
CC1(C)CC[C@@]2(CO)C(=C3C=C[C@@H]4[C@@]5(C)CC[C@H](O)[C@@](C)(CO)[C@@H]5CC[C@@]4(C)[C@]3(C)C[C@@H]2O)C1,"NAD-dependent protein deacetylase sirtuin-1 (SIRT1, Homo sapiens, UniProt Q96EB6)","binding, microscale thermophoresis",,43.2 nM,,MST normalised fluorescence,910 a.u.
